Literature values as cited in several papers.
Each line is one published result; not all experiments were run side by side. “And” joins repeats or separate records; there may be more than shown. Numbers after ± are the reported error. ≈ marks a conversion by molar mass, not a printed value.

With COC(=O)OC1C(=O)C2(C)C(O)CC3OCC3(OC(C)=O)C2C(OC(=O)c2cccc(OC(F)(F)F)c2)C2(O)CC(OC(=O)C(O)C(C=C(C)C)NC(=O)OC(C)(C)C)C(C)=C1C2(C)C (stereo not drawn) the IC50 was 0.51 nM (CFPAC-1; cytotoxicity).
Brc1ccc(Oc2ccc(Br)cc2Br)c(Br)c1 has a log Kow of 6.81.
For O=C(O)c1ccccc1/C=N/Nc1nc(-c2ccccc2Cl)cs1, the C0 was 34.5 ± 18.8 µg/mL (Sprague-Dawley rat, male; intravenous, 1 mg/kg).
CC[C@H](C)[C@H](NC(=O)CNC(=O)[C@H](CCCCN)NC(=O)[C@H](CCCCN)NC(=O)[C@H](CCC(N)=O)NC(=O)[C@H](CC(C)C)NC(=O)[C@H](CCCCN)NC(=O)[C@H](CC(C)C)NC(=O)[C@H](CC(C)C)NC(=O)[C@H](CCCCN)NC(=O)[C@H](CCCCN)NC(=O)[C@H](CC(C)C)NC(=O)[C@H](CC(C)C)NC(=O)[C@H](CCCCN)NC(=O)[C@H](CCSC)NC(=O)[C@H](C)NC(=O)[C@H](CCCCN)NC(=O)[C@@H]1CCCN1C(=O)[C@H](C)N)C(=O)O: “highest non-haemolytic concentration” at most 200 µM (human erythrocytes; up to).
Cc1ccc(C(C)C)cc1.F[P-](F)(F)(F)(F)F.[Cl][Os+]1[N]2C=CC=c3ccc4c(c32)[N]1C=CC=4 — result for “aquation rate constant”: 0.073 h⁻¹ (45 °C).
For C[C@]12C=CC(=O)C=C1[C@@H](CSC[C@H](N)C(=O)O)CC1C2CC[C@]2(C)C(=O)CCC12 (stereo partly drawn), the urinary concentration was 5.9 ± 0.58 nmol/mg creatinine (women taking exemestane, urine; dose not given).
C=C/C=C/C[C@@H](C)[C@@H](O)[C@H]1C(=O)N[C@@H](CC)C(=O)N(C)CC(=O)N(C)[C@@H](CC(C)C)C(=O)N[C@@H](C(C)C)C(=O)N(C)[C@@H](CC(C)C)C(=O)N[C@@H](C)C(=O)N[C@H](C)C(=O)N(C)[C@@H](CC(C)C)C(=O)N(C)[C@@H](CC(C)C)C(=O)N(C)[C@@H](C(C)C)C(=O)N1C has an AUC(0-24h) of 0.866 µg·h/mL (human patients; 23.7 mg twice daily).
The pKa of O=C(O)C(F)(OC(F)(F)C(F)(F)C(F)(F)F)C(F)(F)F (stereo not drawn) is reported as 3.82 (literature value, method not stated).
With c1ccc2cc3c(ccc4ccccc43)cc2c1 the Vmax was 0.022 nmol/min/mg (substrate; human liver microsomes).
Clc1ccc(C(c2ccc(Cl)cc2)C(Cl)(Cl)Cl)cc1 gave a water solubility of 0.025 µg/mL (≈ 0.0705 µM) (25 °C).
CC[C@H](C)[C@@H]1NC(=O)[C@@H]2CSSC[C@@H](C(=O)N[C@@H](CO)C(=O)N[C@@H](CC(C)C)C(=O)N[C@@H](CO)C(=O)N[C@H](C(=O)N[C@@H](C)C(=O)N[C@@H](CCC(N)=O)C(=O)N[C@@H](CCC(=O)O)C(=O)O)C(C)C)NC(=O)[C@H](CCCNC(=N)N)NC(=O)[C@H](CCCNC(=N)N)NC(=O)[C@H](CCCCN)NC(=O)[C@H](CCCNC(=N)N)NC(=O)[C@H](CSSC[C@H](NC(=O)[C@H](CO)NC(=O)[C@H](C)NC(=O)CNC(=O)[C@@H](NC(=O)[C@@H]3CCCN3C(=O)[C@H](CCCNC(=N)N)NC(=O)[C@H](CC(C)C)NC(=O)[C@H](CO)NC(=O)[C@@H](NC(=O)CNC(=O)[C@H](CCCNC(=N)N)NC(=O)[C@H](Cc3c[nH]c4ccccc34)NC(=O)[C@H](Cc3ccccc3)NC(=O)[C@@H]3CCCN3C(=O)[C@@H](NC(=O)[C@@H](N)CCSC)[C@@H](C)O)C(C)C)[C@@H](C)CC)C(=O)N[C@@H](CCCNC(=N)N)C(=O)N[C@@H](CC(=O)O)C(=O)N[C@@H](CC(=O)O)C(=O)N[C@@H](CO)C(=O)N[C@@H](CCC(=O)O)C(=O)N2)NC(=O)[C@H](CC(C)C)NC(=O)[C@H](CCCNC(=N)N)NC(=O)[C@H]([C@@H](C)O)NC1=O gave a plasma half-life of 0.167 to 0.25 h (mouse, plasma).
The log Kow of Clc1ccc(C(c2ccc(Cl)cc2)C(Cl)Cl)cc1 is reported as 6.02.
The IC50 of CC(=O)OC12COC1CC(O)C1(C)C(=O)C(OC(=O)N(C)C)C3=C(C)C(OC(=O)C(O)C(C=C(C)C)NC(=O)OC(C)(C)C)CC(O)(C(OC(=O)c4cccc(OC(F)F)c4)C21)C3(C)C (stereo not drawn) is reported as 1.44 nM (HCT-116; cytotoxicity).
With CCc1nn(C)c2nc(-c3ccc(C(=O)O)cc3)nc(NCc3ccccc3)c12 the oral bioavailability was 33% (mouse).
CC[C@H](C)[C@H](NC(=O)[C@H](CCCN)NC(=O)[C@H](CCCNC(=N)N)NC(=O)[C@@H]1CCCN1C(=O)[C@@H]1CCCN1C(=O)[C@H](CCCNC(=N)N)NC(=O)[C@@H]1CCCN1C(=O)[C@H](CCCNC(=N)N)NC(=O)[C@@H]1CCCN1C(=O)[C@H](CC(C)C)NC(=O)[C@H](Cc1ccc(O)cc1)NC(=O)[C@@H]1CCCN1C(=O)[C@@H]1CCCN1C(=O)[C@H](CCCCN)NC(=O)[C@H](CC(=O)O)NC(=O)[C@@H](N)C(C)C)C(=O)N[C@@H](Cc1ccc(O)cc1)C(=O)N[C@@H](CC(N)=O)C(=O)N[C@@H](CCCN)C(N)=O gave a plasma concentration of 4.02 µg/mL and 3.91 µg/mL (sandwich ELISA; plasma; ip, 5 mg/kg, 10 min).
The pKa of NCC[C@H](N)C(=O)O is reported as 9.95.
The MTD of CN[C@H](CC(C)C)C(=O)N[C@H]1C(=O)N[C@@H](CC(N)=O)C(=O)N[C@H]2C(=O)N[C@H]3C(=O)N[C@H](C(=O)N[C@H](C(=O)NCCCNC(=N)N)c4cc(O)cc(O)c4-c4cc3ccc4O)[C@H](O)c3ccc(c(Cl)c3)Oc3cc2cc(c3O[C@@H]2O[C@H](CO)[C@@H](O)[C@H](O)[C@H]2O[C@H]2C[C@](C)(NCc3ccc(-c4ccc(Cl)cc4)cc3)[C@H](O)[C@H](C)O2)Oc2ccc(cc2Cl)[C@H]1O is reported as at least 50 mg/kg (mouse).
CC(C)=CCCC(C)=CCCn1cc(CC(P(=O)(O)O)P(=O)(O)O)nn1 gave a terminal half-life of 47.7 h (plasma; concentration not given).

Repeated from above:
CC[C@H](C)[C@H](NC(=O)[C@H](CCCN)NC(=O)[C@H](CCCNC(=N)N)NC(=O)[C@@H]1CCCN1C(=O)[C@@H]1CCCN1C(=O)[C@H](CCCNC(=N)N)NC(=O)[C@@H]1CCCN1C(=O)[C@H](CCCNC(=N)N)NC(=O)[C@@H]1CCCN1C(=O)[C@H](CC(C)C)NC(=O)[C@H](Cc1ccc(O)cc1)NC(=O)[C@@H]1CCCN1C(=O)[C@@H]1CCCN1C(=O)[C@H](CCCCN)NC(=O)[C@H](CC(=O)O)NC(=O)[C@@H](N)C(C)C)C(=O)N[C@@H](Cc1ccc(O)cc1)C(=O)N[C@@H](CC(N)=O)C(=O)N[C@@H](CCCN)C(N)=O gave a plasma concentration of 4.02 µg/mL and 3.91 µg/mL (sandwich ELISA; plasma; ip, 5 mg/kg, 10 min).
